Experimental data gathered from unrelated publications.
Protocols differ between the studies behind these lines. Several values in a cell are separate wells, animals, samples, runs or records. ± gives the spread as reported.

C=CCn1c(=O)c2cnc(Nc3ccc(N4CCN(C)CC4)cc3)nc2n1-c1ccc2c(n1)[C@@](O)(CC)CC2 — G1 phase cells (NCI-H1048; flow cytometry; concentration not given): 11.5%
CC(C)(c1ccc(O)cc1)c1ccc(O)cc1 — spheroid area increase (HepG2 spheroids; planimetry; 10 µM, 24 to 96 h; baseline: mean area of 72 h spheroids): 165%
COc1cnc2cccc(N3CCc4c(cc(Cn5ccnc5C)cc4-c4cn(C)nc4C(F)(F)F)C3=O)c2c1 — EC50 (SK-MEL-24; cell growth, inhibitor; 120 h): > 30 µM
O=C(c1ccc2[nH]ccc2c1)N1CCN(S(=O)(=O)c2ccc3[nH]c(=O)oc3c2)CC1 — 6-thio-GTP in RNA (HL-60; NUDT15 inhibitor, mass spectrometry; 10 µM, 16 h, added: 6-thioguanine 1 µM; higher = more incorporation): 881 a.u.
Cn1ncnc1[C@H]1c2n[nH]c(=O)c3cc(F)cc(c23)N[C@@H]1c1ccc(F)cc1 — IC50 (HD-MB03; cell growth; 168 h, single agent): 0.0371 µM
CC1=C(Cn2cc(CBr)nn2)C(=O)c2ccccc2C1=O — killing (Schistosoma mansoni; adult worms; 10 µM, 48 h): 44.9%
CC1(C)CCC(CN2CCN(c3ccc(C(=O)NS(=O)(=O)c4ccc(NCC5CCOCC5)c([N+](=O)[O-])c4)c(Oc4cnc5[nH]ccc5c4)c3)CC2)=C(c2ccc(Cl)cc2)C1 — IC50 (HD-MB03; 168 h): inactive
CCn1cc(-c2cc(Cn3ccoc3=N)cc3c2CCN([C@@H](C)c2cc(OC)ccn2)C3=O)c(C(F)(F)F)n1 — EC50 (BICR56; cell growth; 120 h): > 30 µM
CON(C)C(=O)N1N=C(c2cc(F)ccc2F)S[C@@]1(CCCN)c1ccccc1 — IC50 (HD-MB03; cell growth; 168 h, single agent): 0.00383 µM
Cc1ncc([N+](=O)[O-])n1CC(O)CCl (stereo not drawn) — reversal of trafficking deficit (primary rat hippocampal/cortical neuron-glia cultures; 1 µM, added: 1 µM α-synuclein oligomers): -13.1%
CC(C)n1nc(-c2ccc3oc(N)nc3c2)c2c(N)ncnc21 — IC50 (HD-MB03; cell growth; 168 h, DMSO): 0.0498 µM
COCCn1cc(COc2cccc(Cc3cnc(NC(=O)CSc4nc(-c5ccccc5)cc(-c5ccccc5)n4)s3)c2)nn1 — inhibition (HGC-27; cell viability, MTS; 10 µM): 29 ± 7%
Cn1c(Nc2nc3ccc(C(F)(F)F)cc3s2)nc2cc(C(=O)NCCOCCO)ccc21 — fold change (SH-SY5Y; RNA-seq, measured: FAM30A mRNA; 5 µM, 5 h; baseline: untreated cells): 2.7
Cn1cc(-c2ccc(-c3cncc(Cl)c3N3CCC4(CCNC4=O)CC3)cc2)cn1 — log2 fold change (COLO 205; gene expression, microarray, measured: NDRG1 mRNA; concentration not given, 6 h; baseline: untreated cells): 3.16
CC1Cc2ccccc2N1NC(=O)c1ccc(Cl)c(S(N)(=O)=O)c1 (stereo not drawn) — inhibition (Nedd8-cullin1 interaction; neddylation, AlphaScreen; 100 µM): -7.6%
CC1=C(Cn2ccnn2)C(=O)c2ccccc2C1=O — killing (Schistosoma mansoni; adult worms; 25 µM, 48 h): 50%
Nc1cccc2c1C(=O)N(C1CCC(=O)NC1=O)C2=O (stereo not drawn) — surface marker level (RPMI-8226; flow cytometry, measured: CD104; concentration not given; baseline: comparator compound alone): 279%
COc1cc(/C=C/C(=O)N2CCC=CC2=O)cc(OC)c1OC — mRNA level (MDA-MB-468; quantitative RT-PCR, measured: BACE2; 30 µM, 8 h; baseline: untreated cells): 60.2 ± 6.6%
O=C(C[C@@H](C(F)F)n1ccc(F)n1)N1CCC(O)(Cn2cnc3c(cnn3-c3ccc(F)cc3)c2=O)CC1 — cells in S phase (CHP-212 resistant; PI staining flow cytometry; 0.1 µM, 24 h): 13.3% and 12.6% and 15.7%
O=C(O)c1ccc(-n2nc(-c3ccccc3O)nc2-c2ccccc2O)cc1 — inhibition (Nedd8-cullin1 interaction; neddylation, AlphaScreen; 100 µM): -151%
CCn1cc(-c2cc(Cn3ccnc3)cc3c2CCN([C@H](c2cc(OC)ccn2)C2CC2)C3=O)c(C(F)(F)F)n1 — EC50 (NCI-H596; cell growth, inhibitor; 120 h): 6.9 µM
CCCCc1oc2ccc(NS(C)(=O)=O)cc2c1C(=O)c1ccc(OCCCN(CCCC)CCCC)cc1 — fold change (human embryonic stem cell aggregates; mRNA level, microarray, measured: OLIG3; 0.5 µM, 120 h; baseline: untreated, up-regulated): 7.2 fold
O=C(/C=C/C=C/C=C/C1CCCCC1)NC1=C[C@@](O)(/C=C/C=C/C=C/C(=O)NC2=C(O)CCC2=O)[C@@H]2O[C@@H]2C1=O — GI50 (AU565; cell growth, CellTiter-Glo; 78 h): 14.1 µM
Cc1cnc(NC2CCOCC2)nc1-n1cnc(C(=O)NC(CN)c2cc(F)cc(Cl)c2)c1 (stereo not drawn) — S phase cells (A-375; flow cytometry; 1 µM, 24 h): 5.5%
